Earlier results, collected from citations in different studies.
Numbered parts are unrelated; values within a part may stem from several laboratories. In brackets after ≈: the same amount, converted by molar mass.

Study 1 — organism: Cryptosporidium parvum; method: high-throughput screen; concentration: concentration not given
Structure (SMILES) | activity
Nc1ccc2cn[nH]c2c1 | inactive
C#C[C@]1(OC(C)=O)CC[C@H]2[C@@H]3CCC4=CC(=O)CC[C@@H]4[C@H]3CC[C@@]21C | inactive
COc1cc(/C=C/c2ccc(O)cc2)cc(OC)c1 | inactive
CCOC(=O)C1=C(C)NC(C)=C(C(=O)OC)C1c1cccc([N+](=O)[O-])c1 (centres unmarked) | inactive
CC(CN1c2ccccc2Sc2ccccc21)N(C)C.Cl (centres unmarked) | inactive
CC(C)C(=O)Nc1ccc([N+](=O)[O-])c(C(F)(F)F)c1 | inactive
NC(=O)c1cccnc1 | inactive
COc1ccnc(C[S+]([O-])c2nc3ccc(OC(F)F)cc3[nH]2)c1OC (centres unmarked) | inactive
C#C[C@]1(O)CC[C@H]2[C@@H]3CCC4=Cc5oncc5C[C@]4(C)[C@H]3CC[C@@]21C | inactive
C[C@H]1COc2c(C3(N)CC3)c(F)cc3c(=O)c(C(=O)O)cn1c23 | inactive
CC=CC(=O)N(CC)c1ccccc1C (mixture of isomers) | inactive
CN(C)C(=O)C(CCN1CCC(O)(c2ccc(Cl)cc2)CC1)(c1ccccc1)c1ccccc1 | inactive
N[C@@H]1CON=C1O | inactive
CCOC(=O)C1=C(C)NC(C)=C(C(=O)OCC)C1c1ccccc1/C=C/C(=O)OC(C)(C)C | inactive
CCCN1CCCC[C@H]1C(=O)Nc1c(C)cccc1C | inactive
CN(C)CC[C@@H](c1ccc(Br)cc1)c1ccccn1 | inactive
COc1ccc(C2CNC(=O)C2)cc1OC1CCCC1 (centres unmarked) | inactive
CCOC(=O)O[C@]1(C(=O)OCCl)CC[C@H]2[C@@H]3CCC4=CC(=O)C=C[C@]4(C)[C@H]3[C@@H](O)C[C@@]21C | inactive
O=C(O)CCNC(=O)c1ccc(/N=N/c2ccc(O)c(C(=O)O)c2)cc1 | inactive
O=C(O)COCCN1CCN(C(c2ccccc2)c2ccc(Cl)cc2)CC1 (centres unmarked) | inactive
NC1CCN(c2nc3c(cc2F)c(=O)c(C(=O)O)cn3-c2ccc(F)cc2F)C1 (centres unmarked) | inactive
CC(N/C(=N\C#N)Nc1ccncc1)C(C)(C)C.O (centres unmarked) | inactive
CCC1(c2ccccc2)C(=O)NCNC1=O | inactive
C[C@@H]1O[C@@H](OC[C@H]2O[C@@H](Oc3c(-c4ccc(O)c(O)c4)oc4cc(O)cc(O)c4c3=O)[C@H](O)[C@@H](O)[C@@H]2O)[C@H](O)[C@H](O)[C@H]1O | inactive
CCC(=O)NS(=O)(=O)c1ccc(-c2c(-c3ccccc3)noc2C)cc1 | inactive

Study 2 — target: dopamine transporter
Structure (SMILES) | IC50
Cc1ccccc1N1CCN(CCc2nnc3n2CCCC3)CC1 | > 10 µM
CCN(CCO)CCCC(C)Nc1ccnc2cc(Cl)ccc12 (centres unmarked) | > 10 µM
COc1ccc2[nH]c([S+]([O-])Cc3ncc(C)c(OC)c3C)nc2c1 (centres unmarked) | > 10 µM
CN(C)CCC=C1c2ccccc2CCc2ccccc21 | 6.2 µM
CC(C)(C)NC(=O)[C@H]1CC[C@H]2[C@@H]3CC[C@H]4NC(=O)C=C[C@]4(C)[C@H]3CC[C@]12C | > 10 µM
NNC(=O)c1ccncc1 | > 10 µM

Single results of other studies
SMILES | target or system | assay | test system | setting | scale | quantity | result
CO/N=C(\C(=O)N[C@@H]1C(=O)N2C(C(=O)O)=C(CSc3nc(=O)c(=O)[nH]n3C)CS[C@H]12)c1csc(N)n1 |  |  | human, plasma |  |  | fu | 27%
CN([C@@H]1CCc2c(CC(=O)O)c3ccccc3n2C1)S(=O)(=O)c1ccc(F)cc1 | PTGDR2 | cellular activity |  |  |  | IC50 | 0.003 µM
CC1(C)CCC(CN2CCN(c3ccc(C(=O)NS(=O)(=O)c4ccc(NCC5CCOCC5)c([N+](=O)[O-])c4)c(Oc4cnc5[nH]ccc5c4)c3)CC2)=C(c2ccc(Cl)cc2)C1 |  |  | human | oral, fed, median |  | Tmax | 6 h
O=C(c1cc(Cc2n[nH]c(=O)c3ccccc23)ccc1F)N1CCN(C(=O)C2CC2)CC1 |  |  | human | 300 mg tablet | baseline: 400 mg capsule | Cmax | increased
Cc1nc(Nc2ncc(C(=O)Nc3c(C)cccc3Cl)s2)cc(N2CCN(CCO)CC2)n1 |  |  |  | pH 6.8 |  | aqueous solubility | < 1 µg/mL
COc1cc(N2CCC3(CCN(C)CC3)CC2)ccc1Nc1ncc(Cl)c(Nc2ccccc2P(C)(C)=O)n1 |  |  | healthy human subjects |  |  | elimination half-life | 28.6 h
Cc1cc(NS(=O)(=O)c2ccc(N)cc2)no1 | NAT2 | substrate |  |  |  | Km | 5 mM
CO[C@@H](C)c1c(Nc2ccc([C@H](N(C)C(=O)C3CCS(=O)(=O)CC3)C(F)(F)F)cc2)cnc2cc(Cl)nn12 | human MALT1 | biochemical |  | high salt |  | IC50 | 0.0024 µM
COc1ccc(-n2nc(C(N)=O)c3c2C(=O)N(c2ccc(N4CCCCC4=O)cc2)CC3)cc1 |  |  | dog | oral, 0.2 mg/kg |  | aPTT | no effect
CC(C)Cc1ccc(C(C)C(=O)O)cc1 (centres unmarked) |  |  | human | 600 mg single dose |  | plasma concentration | ~100 µM
Cc1ccc(Oc2ccc(NC(=O)CNc3ccccc3N3CCCC3=O)cc2)cc1 | Plasmodium falciparum | parasite growth | 3D7 resistant population A |  |  | EC50 | 5.13 µM
FC(F)(F)c1cc(-c2ccccc2)c2nncn2c1 | METAP2 (human) | enzyme activity |  |  |  | IC50 | > 10 µM
O=S(=O)(Nc1ccc(-c2nc3cc(NS(=O)(=O)c4cccc5ccccc45)ccc3o2)cc1)c1cccc2ccccc12 | HEK293 |  |  |  |  | CC50 | > 100 µM
CC(=O)Nc1c(C(C)=O)c(=O)n(C)c2nc(-c3ccc(Cl)cc3Cl)c(-c3ccc(Cl)cc3)cc12 | ALOX5 |  |  | off-target panel |  | IC50 | 1.34 µM
C=CC(=O)Nc1ccc(OC)c(Nc2cc(-c3[nH]c(SC)nc3-c3cccc(NC(=O)c4c(F)ccc(O)c4CN4C(=O)c5ccccc5C4=O)c3)ccn2)c1 | Ba/F3 expressing EGFR L858R | cell growth |  |  |  | EC50 | 1.2 µM
CC(=O)O[C@H]1C(=O)[C@@]2(C)[C@H]([C@H](OC(=O)c3ccccc3)[C@]3(O)C[C@H](OC(=O)[C@H](O)[C@@H](NC(=O)c4ccccc4)c4ccccc4)C(C)=C1C3(C)C)[C@]1(OC(C)=O)CO[C@@H]1C[C@@H]2O |  |  |  |  |  | solubility | ~10 µg/mL (≈ 11.7 µM)
CN(C)CC/C=C1/c2ccccc2Sc2ccc(Cl)cc21 | MCF7 | microarray, Connectivity Map, item: MAFF mRNA |  | concentration not given, 6 h | baseline: DMSO | fold change | 7.83
COc1c(Br)cccc1C(=O)Nc1ccc(Sc2nc3ccccc3s2)cc1 | THLE3 |  |  |  |  | CC50 | > 100 µM
O=C1C=CC(=O)c2ccccc21 |  |  | dimethylformamide |  | baseline: compound over ubiquinone | midpoint potential difference | 20 mV

A few entries again (study 1):
Structure (SMILES) | activity
CCOC(=O)C1=C(C)NC(C)=C(C(=O)OCC)C1c1ccccc1/C=C/C(=O)OC(C)(C)C | inactive
COc1cc(/C=C/c2ccc(O)cc2)cc(OC)c1 | inactive
C[C@H]1COc2c(C3(N)CC3)c(F)cc3c(=O)c(C(=O)O)cn1c23 | inactive
